{"data": "Measured values from different studies", "target": "Acetylcholinesterase (ache, Electrophorus electricus, UniProt O42275)", "note": "Lines come from different studies, so protocols differ.", "UniProt O42275, sequence (whole entry, looked up)": "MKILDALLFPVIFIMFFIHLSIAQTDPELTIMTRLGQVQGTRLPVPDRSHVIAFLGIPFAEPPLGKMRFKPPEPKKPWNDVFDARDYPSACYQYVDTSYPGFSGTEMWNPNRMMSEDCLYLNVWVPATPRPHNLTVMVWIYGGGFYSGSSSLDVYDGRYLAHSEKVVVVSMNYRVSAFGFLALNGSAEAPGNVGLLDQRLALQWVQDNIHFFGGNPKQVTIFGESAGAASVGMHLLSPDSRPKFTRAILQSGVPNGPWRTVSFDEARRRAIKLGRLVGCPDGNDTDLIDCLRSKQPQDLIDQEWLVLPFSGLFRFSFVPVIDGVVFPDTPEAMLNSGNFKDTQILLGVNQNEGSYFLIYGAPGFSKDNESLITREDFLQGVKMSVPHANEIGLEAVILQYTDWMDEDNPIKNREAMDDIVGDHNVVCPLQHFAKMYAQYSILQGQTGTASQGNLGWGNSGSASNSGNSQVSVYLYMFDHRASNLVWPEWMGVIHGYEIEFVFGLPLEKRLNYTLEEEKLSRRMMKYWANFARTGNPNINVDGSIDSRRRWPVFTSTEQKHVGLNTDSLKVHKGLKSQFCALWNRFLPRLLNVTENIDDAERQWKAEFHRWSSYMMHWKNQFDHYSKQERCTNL"}
{"SMILES": "O=C(/C=C/c1ccccc1)c1cc2ccccc2oc1=O", "assay": "enzyme activity, inhibitor", "conditions": "10 µM", "quantity": "remaining activity", "value": "86.8%"}
{"SMILES": "O=c1oc2c(CNCCc3cccc(F)c3)c(O)ccc2c2c1CCC2", "assay": "peripheral site binding", "conditions": "3 µM", "quantity": "propidium displacement", "value": "100%"}
{"SMILES": "O=C(/C=C/c1ccc(Cl)cc1)c1cc2ccccc2oc1=O", "assay": "enzyme activity, inhibitor", "conditions": "10 µM", "quantity": "remaining activity", "value": "76.9%"}
{"SMILES": "Cc1nc(-c2ccc(Cl)cc2)nc2sc3c(=O)n(CCN4CCOCC4)cnc3c12", "assay": "peripheral site binding", "conditions": "3 µM", "quantity": "propidium displacement", "value": "58%"}
{"SMILES": "COc1ccc(CCNc2c(NC3CCN(Cc4ccccc4)CC3)c(=O)c2=O)cc1OC", "assay": "enzyme activity, inhibitor, Ellman", "conditions": "25 µM", "quantity": "inhibition", "value": "59.3%"}
{"SMILES": "Clc1ccc(Nc2c3c(nc4ccccc24)CCCC3)cc1", "assay": "enzyme activity, inhibitor, Ellman", "conditions": "50 µM", "quantity": "inhibition", "value": "44.4%"}
{"SMILES": "O=c1c(NCc2ccc(Br)cc2)c(NC2CCN(Cc3ccccc3)CC2)c1=O", "assay": "enzyme activity, inhibitor, Ellman", "conditions": "25 µM", "quantity": "inhibition", "value": "54.1%"}
{"SMILES": "COc1ccnc(Nc2c3c(nc4cc(C)ccc24)CCCC3)c1", "assay": "enzyme activity, inhibitor, Ellman", "conditions": "50 µM", "quantity": "inhibition", "value": "76%"}
{"SMILES": "COc1ccc([C@@H]2N=NC(NCCc3c[nH]c4ccc(C)cc34)=NC2=O)cc1", "assay": "peripheral site binding", "conditions": "1 µM", "quantity": "propidium displacement", "value": "58%"}
{"SMILES": "COc1ccc2c(c1OC)CN1CCc3cc(O)c(O)cc3[C@@H]1C2", "assay": "enzyme activity, inhibitor, Ellman", "conditions": "up to 0.1 µg/mL", "quantity": "IC50", "value": "inactive"}
{"SMILES": "Cc1cc(O)c2c(c1)C(=O)c1c(O)ccc(O)c1C2=O", "assay": "peripheral anionic site binding, propidium iodide competition", "conditions": "50 µM", "quantity": "propidium iodide displacement", "value": "69.2%"}
{"SMILES": "COc1ccnc(Nc2c3c(nc4ccc(Cl)cc24)CCCC3)c1", "assay": "enzyme activity, inhibitor, Ellman", "conditions": "50 µM", "quantity": "inhibition", "value": "33.6%"}
{"SMILES": "O=C(/C=C/c1cccc(Cl)c1)c1cc2ccccc2oc1=O", "assay": "enzyme activity, inhibitor", "conditions": "10 µM", "quantity": "remaining activity", "value": "77.1%"}
{"SMILES": "FC(F)(F)c1cccc(Nc2c3c(nc4ccccc24)CCCC3)c1", "assay": "enzyme activity, inhibitor, Ellman", "conditions": "50 µM", "quantity": "inhibition", "value": "< 50%"}
{"SMILES": "O=c1c(NCc2ccc(O)cc2)c(NC2CCN(Cc3ccccc3)CC2)c1=O", "assay": "enzyme activity, inhibitor, Ellman", "conditions": "12.5 µM", "quantity": "inhibition", "value": "42%"}
{"SMILES": "COc1ccc(Nc2c3c(nc4cc(C)ccc24)CCCC3)nc1", "assay": "enzyme activity, inhibitor, Ellman", "conditions": "50 µM", "quantity": "inhibition", "value": "64.1%"}
{"SMILES": "O=C(/C=C/c1ccccc1Br)c1cc2ccccc2oc1=O", "assay": "enzyme activity, inhibitor", "conditions": "10 µM", "quantity": "remaining activity", "value": "78.2%"}
{"SMILES": "Cc1ccc(Nc2c(NC3CCN(Cc4ccccc4)CC3)c(=O)c2=O)cc1", "assay": "enzyme activity, inhibitor, Ellman", "conditions": "12.5 µM", "quantity": "inhibition", "value": "55.6%"}
{"SMILES": "COCCN1COc2c(cc3c4c(c(=O)oc3c2C)CCC4)C1", "assay": "peripheral site binding", "conditions": "1 µM", "quantity": "propidium displacement", "value": "42%"}
{"SMILES": "Cc1ccc(CCNc2c(NC3CCN(Cc4ccccc4)CC3)c(=O)c2=O)cc1", "assay": "enzyme activity, inhibitor, Ellman", "conditions": "25 µM", "quantity": "inhibition", "value": "52.2%"}
{"SMILES": "COc1ccnc(Nc2c3c(nc4ccccc24)CCCC3)c1", "assay": "enzyme activity, inhibitor, Ellman", "conditions": "100 µM", "quantity": "inhibition", "value": "> 90%"}
{"SMILES": "COc1ccc2c(c1OC)C(=O)c1nccc3cc4c(c-2c13)OCO4", "assay": "enzyme activity, inhibitor, Ellman", "conditions": "up to 0.1 µg/mL", "quantity": "IC50", "value": "inactive"}
{"SMILES": "Cc1ccc(CNc2c(NC3CCN(Cc4ccccc4)CC3)c(=O)c2=O)cc1", "assay": "enzyme activity, inhibitor, Ellman", "conditions": "12.5 µM", "quantity": "inhibition", "value": "45.2%"}
{"SMILES": "Fc1ccc(Nc2c3c(nc4ccccc24)CCCC3)cc1", "assay": "enzyme activity, inhibitor, Ellman", "conditions": "100 µM", "quantity": "inhibition", "value": "67.4%"}
{"SMILES": "O=c1c(NCCc2ccc(Br)cc2)c(NC2CCN(Cc3ccccc3)CC2)c1=O", "assay": "enzyme activity, inhibitor, Ellman", "conditions": "12.5 µM", "quantity": "inhibition", "value": "30.1%"}
{"SMILES": "c1ccc(Nc2c3c(nc4ccccc24)CCCC3)cc1", "assay": "enzyme activity, inhibitor, Ellman", "conditions": "100 µM", "quantity": "inhibition", "value": "52.2%"}
{"SMILES": "O=C(/C=C/c1cccc(Br)c1)c1cc2ccccc2oc1=O", "assay": "enzyme activity, inhibitor", "conditions": "10 µM", "quantity": "remaining activity", "value": "73.7%"}
{"SMILES": "COc1ccc(CNc2c(NC3CCN(Cc4ccccc4)CC3)c(=O)c2=O)cc1", "assay": "enzyme activity, inhibitor, Ellman", "conditions": "25 µM", "quantity": "inhibition", "value": "65.9%"}
{"note": "Repeated from above:"}
{"SMILES": "O=C(/C=C/c1ccccc1Br)c1cc2ccccc2oc1=O", "assay": "enzyme activity, inhibitor", "conditions": "10 µM", "quantity": "remaining activity", "value": "78.2%"}
{"SMILES": "Cc1cc(O)c2c(c1)C(=O)c1c(O)ccc(O)c1C2=O", "assay": "peripheral anionic site binding, propidium iodide competition", "conditions": "50 µM", "quantity": "propidium iodide displacement", "value": "69.2%"}
{"SMILES": "FC(F)(F)c1cccc(Nc2c3c(nc4ccccc24)CCCC3)c1", "assay": "enzyme activity, inhibitor, Ellman", "conditions": "50 µM", "quantity": "inhibition", "value": "< 50%"}
{"SMILES": "O=c1oc2c(CNCCc3cccc(F)c3)c(O)ccc2c2c1CCC2", "assay": "peripheral site binding", "conditions": "3 µM", "quantity": "propidium displacement", "value": "100%"}
